Published values from different studies.
Each line is one published result; not all experiments were run side by side. ± gives the spread as reported.

Cc1nc(C)c(C=[N+]([O-])C(C)(C)C)nc1C  increase in protein level (Western blot, refers to: MEF2D; MPTP mouse model, substantia nigra cytosol; 10 mg/kg): 26.1%
Cc1cc2c(cc1C1(c3ncc(C(=O)O)cn3)CC1)C(C)(C)CCC2(C)C  log2 fold change (RNA sequencing, refers to: Scd1; rat, brain; dose not given, 24 h; baseline: vehicle): -1.2
C[C@@H](NC(=O)[C@@H](Cc1ccccc1)NC(=O)[C@@H](Cc1c[nH]cn1)NC(=O)[C@@H](Cc1ccc(O)cc1)NC(=O)[C@@H](CCC(=O)O)NC(=O)[C@@H](CO)NC(=O)[C@H](N)CCC(N)=O)C(=O)O  mean arterial pressure (rabbit, AT1R autoantibody-immunised hypertension; iv, 1 mg/kg, 90 min, 6 weeks immunisation): 82 ± 6 mmHg
N[C@@H](Cc1c[nH]c2ccccc12)C(=O)N1CCC[C@H]1C(=O)NCC(=O)NCC(=O)O  ΔG‡ at 298.15 K (diketopiperazine formation, Arrhenius plot, ESI-MS; 1-propanol; 70, 80, 90 °C, 0.5% acetic acid): 23.9 ± 1.67 kcal/mol
COc1cc(Cn2ccc3cc(C(=O)NCC45CC6CC(CC(C6)C4)C5)ccc32)ccc1C(=O)NO  decrease of TSPO PET signal (PET/CT; 5xFAD mouse, brain; dose not given, together with: [11C]PBR28; baseline: vehicle-treated 5xFAD): ~41%
COc1ccc2nc(C)ccc2c1Nc1sn(C)c(=O)c1C#N  protection of SNAP amplitude (tail sensory nerve conduction; mouse, paclitaxel neuropathy model; oral, 300 mg/kg daily, 9 days post-paclitaxel, together with: paclitaxel; baseline: vehicle): 44.7 ± 12.9%
CCCOC(=O)Cc1c(C)n(C(=O)c2ccc(Cl)cc2)c2ccc(OC)cc12  latency of nociceptive response (hot plate test; BALB/c mice; 100 mg/kg, 0 min): 9.78 ± 0.33 s
CCc1nnc(NS(=O)(=O)c2ccc(NC(=S)NC(=O)/C=C/c3ccc(F)cc3)cc2)s1  tumour cell proliferation (refers to: Ki-67; NXS2 allograft, A/J mice, tumour; intraperitoneal, 20 mg/kg daily, 3 weeks; baseline: vehicle): decreased
COc1ccc(C2CC(c3ccc(C)cc3)=Nc3ccccc3S2)cc1 (centres unmarked)  blood glucose (rat, normal, overnight fasted; oral, 10 mg/kg, 60 min, oral glucose tolerance test, together with: glucose 3 g/kg oral): 120 ± 4.97 mg/dL
CC(C)(O)c1ccc(N2Cc3c(ccnc3-c3ccc(F)cc3OCC(F)(F)F)C2=O)cc1  glucosylceramide level (mouse, plasma; 300 mg/kg, 6 h; baseline: vehicle): 50 ± 4%
CC(CCC(=O)NCc1ccc(C(=O)NO)cc1)C1CCC2C3C(O)CC4CC(O)CCC4(C)C3CCC12C (centres unmarked)  increase in ciliated cholangiocytes (PCK rats, liver; dose not given; baseline: untreated): 182%
COc1ccc2c(c1)c(CC(=O)OCC(=O)OC(C)(C)C)c(C)n2C(=O)c1ccc(Cl)cc1  latency of nociceptive response (hot plate test; BALB/c mice; 100 mg/kg, 60 min): 18.1 ± 1.02 s
CC[C@H](C)[C@H](NC(=O)[C@H](CCCCN)NC(=O)[C@H](CC(N)=O)NC(=O)CNC(=O)[C@@H](NC(=O)[C@H](C)NC(=O)[C@H](CCCNC(=N)N)NC(=O)[C@H](CC(C)C)NC(=O)[C@H](CCCCN)NC(=O)[C@H](CCCCN)NC(=O)[C@H](CCCCN)NC(=O)[C@H](C)NC(=O)[C@H](CCCCN)NC(=O)[C@@H]1CSSC[C@H](NC(=O)[C@H](CCCNC(=N)N)NC(=O)CN)C(=O)N[C@@H](CC(N)=O)C(=O)N[C@@H](CC(C)C)C(=O)N[C@@H](CC(C)C)C(=O)N1)C(C)C)C(=O)N[C@@H](CCCCN)C(=O)N[C@@H](CCC(=O)O)C(=O)N[C@H](C(=O)N[C@@H](CCCCN)C(=O)N[C@@H](CC(N)=O)C(=O)N[C@H](C(=O)N[C@H](C(=O)N[C@@H](Cc1ccccc1)C(=O)N[C@@H](CC(N)=O)C(=O)N[C@@H](CCCNC(=N)N)C(=O)O)C(C)C)C(C)C)[C@@H](C)CC  cytokine level (refers to: IL-6; BALB/c mice, CLP-induced sepsis, serum and lung; intraperitoneal, 5 mg/kg, 12 h post-surgery; baseline: vehicle): decreased
O=C(NCCCCc1ccccc1)n1c(=O)oc2cc(-c3ccc(F)cc3)ccc21  lung ceramide levels (refers to: ceramide d18:1/14:0, d18:1/16:0, d18:1/18:0; mouse, lung; intraperitoneal, 10 mg/kg, 3 h): increased
CC(=O)Nc1ccc(OC(=O)CCC(=O)[O][Pt-2]23([O]C(=O)CCC(=O)Oc4ccc(NC(C)=O)cc4)([NH2+][C@@H]4CCCC[C@H]4[NH2+]2)[O]C(=O)C(=O)[O]3)cc1  lung metastatic nodules (BALB/c mouse, 4T1 lung metastasis; dose not given, day 16): decreased
CC(C)c1cnc(-c2cc(Cl)ccc2F)cc1Nc1ccncc1C(=O)NC(CO)CO  inhibition (flow cytometry, refers to: pSMAD2/3; patients, peripheral monocytes; 500 mg): ~90%
N[C@@H](CC(=O)O)C(=O)N1CCC[C@H]1C(=O)NCC(=O)NCC(=O)O  ΔG‡ at 298.15 K (diketopiperazine formation, Arrhenius plot, ESI-MS; 1-propanol; 70, 80, 90 °C, 0.5% acetic acid): 22.2 ± 0.239 kcal/mol
CC(=O)N[C@@H](CC(N)=O)C(=O)NCC(=O)N[C@@H](CCCNC(=N)N)C(=O)N[C@@H](C)C(N)=O  rate constant succinimide to β-Asp (1H NMR; sodium phosphate buffer 50 mM; pH 7.4, 46 °C): 1.06 h⁻¹
C=C(c1ncc(C(=O)O)cn1)c1cc2c(cc1C)C(C)(C)CCC2(C)C  log2 fold change (RNA sequencing, refers to: Cyp26a1 mRNA; rat, brain; dose not given, 24 h, single dose; baseline: vehicle): -0.088
CC(=O)[O-].Nc1ccc(C([O-])=NN=Cc2ccc(OCC(=O)Nc3ccc(Cl)cc3)cc2)cc1.O.O.O.[Co+2]  inhibition (ABTS radical scavenging, ABTS; concentration not given, 6 min): 54.3%

For quick reference, copied from above:
Cc1cc2c(cc1C1(c3ncc(C(=O)O)cn3)CC1)C(C)(C)CCC2(C)C  log2 fold change (RNA sequencing, refers to: Scd1; rat, brain; dose not given, 24 h; baseline: vehicle): -1.2
COc1ccc2nc(C)ccc2c1Nc1sn(C)c(=O)c1C#N  protection of SNAP amplitude (tail sensory nerve conduction; mouse, paclitaxel neuropathy model; oral, 300 mg/kg daily, 9 days post-paclitaxel, together with: paclitaxel; baseline: vehicle): 44.7 ± 12.9%
